Measurements collected from several papers.
Protocols differ between the studies behind these lines. ± gives the spread as reported. No end group written: not given here.
B1: bicyclic; chain AATCHCRRSCYSTEYSYGTCTVMGINHRFCCL (also: bicyclic or more (positions not given here))

For `PMESGICTIV`, “normalised SPR binding response” read 12.4 normalised RU (human MAGI1-3/6 PDZ construct (MBP fusion); surface plasmon resonance; peptide; concentration not given; higher = stronger binding).
For `coproporphyrin I`, “mean daily plasma concentration” read 0.833 ± 0.034 nM (human, plasma; baseline day).
The albumin of `caspofungin` is reported as 26.3 g/L (adult ICU patients, mITT, serum; dose not given, EOT).
`Rilpivirine docusate` gave an equilibrium solubility of 4.34 ± 0.07 µg/mL (buffer; pH 1.2).
`regorafenib N-β-glucuronide` — result for “long-term stability accuracy”: 99.5% (mouse plasma; 25 ng/mL, 6 months, -80 °C).
`Polymyxin B` — result for “log2 fold change”: -4.2 (untargeted LC-MS metabolomics, refers to: L-ornithine; Sprague-Dawley rat, right cerebral cortex; intracerebroventricular, 0.75 mg/kg, 1 h; relative to: NaCl control).
The protein binding of `Teicoplanin` is reported as 79% (ultrafiltration, UPLC-MS/MS; haematology and ICU patients, patient serum; 37 °C).
With `GSGAGKETEC` the binding intensity was 0.425 (human SCRIB PDZ3-4 tandem (MBP fusion); automated holdup; peptide, purified PDZ protein; concentration not given, unit not given; relative to: biotin control resin, higher = stronger binding).
`B1`: “sedimentation coefficient s20,w” 0.783 S (sedimentation velocity ultracentrifugation; 10 mM Tris-maleate; 160 µM, pH 6.4, 20 °C).
`FNA / CGLSGLGVA-NH2 ([18F]FNA-labelled, C-amide)` has a tissue uptake of 0.34 %ID/g (ex vivo gamma counting; peptide, healthy mice, large intestine; dose not given, 60 min).

Excerpt of the above:
`Polymyxin B` — result for “log2 fold change”: -4.2 (untargeted LC-MS metabolomics, refers to: L-ornithine; Sprague-Dawley rat, right cerebral cortex; intracerebroventricular, 0.75 mg/kg, 1 h; relative to: NaCl control).
